Published values collected from several papers.
Every numbered part comes from another study and shows a few of its results, in no order. Substitutions count along the parent as printed.

Block 1
Target: CCNA2, cyclin fold, Cln2 fusion (human)
Method: yeast growth competition, sequencing
Sample: yeast
Setting: strong parent motif
Reference: not given
Reading: higher = stronger binding
Quantity: normalised enrichment score
Starting sequence: CDKN1B docking peptide (human); PSACRNLFGPVDH; partner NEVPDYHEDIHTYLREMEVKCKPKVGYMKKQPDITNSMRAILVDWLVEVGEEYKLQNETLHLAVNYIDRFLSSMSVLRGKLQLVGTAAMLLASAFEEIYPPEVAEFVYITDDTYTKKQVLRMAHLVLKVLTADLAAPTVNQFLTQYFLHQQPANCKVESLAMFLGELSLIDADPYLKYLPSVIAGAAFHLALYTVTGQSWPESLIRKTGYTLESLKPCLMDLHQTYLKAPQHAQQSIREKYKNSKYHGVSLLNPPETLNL
PSACRNNFGPVDH [L7N]: 0.0621
PSACRNLQGPVDH [F8Q]: 0.614
PSACRNLFGPVDE [H13E]: 4.32
PSACRNLFGQVDH [P10Q]: 3.59
PFACRNLFGPVDH [S2F]: 2.4
PSACRNLFGPVEH [D12E]: 3.75

Block 2
Target: Phosphate system positive regulatory protein PHO4, full length, GST-tagged (PHO4, Saccharomyces cerevisiae, UniProt P07270, residues 1-312)
Method: competition protein-binding microarray
Form: double-stranded DNA, one strand shown
Sample: in vitro
Tested at: 2 µM
Setting: whole 60-bp probe, lowest competitor level
With: Cbf1 competitor, 0.05 µM
Reading: higher = stronger binding
Quantity: fluorescence intensity
Target sequence (chain): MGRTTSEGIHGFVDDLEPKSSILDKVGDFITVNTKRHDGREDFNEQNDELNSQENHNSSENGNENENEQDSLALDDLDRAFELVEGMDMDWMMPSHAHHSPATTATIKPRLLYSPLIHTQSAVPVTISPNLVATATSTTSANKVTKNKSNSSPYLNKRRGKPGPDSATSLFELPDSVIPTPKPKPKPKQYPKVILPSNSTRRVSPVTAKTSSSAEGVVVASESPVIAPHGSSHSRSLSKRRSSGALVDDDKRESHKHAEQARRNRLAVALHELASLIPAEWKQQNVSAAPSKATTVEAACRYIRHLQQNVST
ACAACTCCCAGCAGCCACGAGGAGCCCTAGGGCTTGGTCTTGATTCGCTTGACGCTGCTG: 12000 a.u.
TTCTTCCAATCGAGTCACGTCGCGTCCTCGGAGGCAGTCTTGATTCGCTTGACGCTGCTG: 4670 a.u.
CTTTGCCTTCTTCTCCACATGGAATTACTATTTTCAGTCTTGATTCGCTTGACGCTGCTG: 6060 a.u.
CGGGGTTAAGTTTGAGGTGTGGGTGGCTTGCAGCAGGTCTTGATTCGCTTGACGCTGCTG: 5750 a.u.

Block 3
Target: RING finger protein unkempt homolog, zinc fingers 1-6, GST-SBP tag (UNK, Homo sapiens, UniProt Q9C0B0, residues 30-357)
Chain of UniProt Q9C0B0 (30-357, looked up): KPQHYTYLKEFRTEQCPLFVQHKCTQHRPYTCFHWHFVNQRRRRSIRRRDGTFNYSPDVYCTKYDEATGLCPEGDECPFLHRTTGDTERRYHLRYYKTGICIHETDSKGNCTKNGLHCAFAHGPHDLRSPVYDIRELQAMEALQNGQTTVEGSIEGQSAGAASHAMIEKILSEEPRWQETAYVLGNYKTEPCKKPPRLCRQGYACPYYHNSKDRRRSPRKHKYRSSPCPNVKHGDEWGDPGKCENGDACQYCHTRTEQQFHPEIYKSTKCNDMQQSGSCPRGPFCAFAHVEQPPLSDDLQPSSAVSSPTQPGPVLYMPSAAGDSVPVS
Method: RNA Bind-n-Seq
Form: RNA
Sample: in vitro
Tested at: not given
Setting: RNA with constant flanks, ends assumed
Reference: input RNA pool
Reading: higher = stronger binding
Quantity: bound/input enrichment
GGGAGUUCUACAGUCCGACGAUCCUGUGGUGACUCAGAUAAAGGAUUUGUCGUUAUUAAUCAAAAGGGGAUUGACCCCUUUUCCUCCGAUGCCCUUGCGAAAGAAGGGAUCGUAGCUCUGCGCAGAGCCAAGAGGAGAAACAUCAACAGAGGAUUGAGCAUCA: 0.174 ratio
GGGAGUUCUACAGUCCGACGAUCAGCUGGGCAGGGGGUAACUUUACUGAUUUGGGGGUGGUUUUUAGUUUAAUUUUUCUUUUCCCGCUUCCCAUCGACGGUCAGUGCGCACGUUGUAAUCAGCUGAGGCCAUGUCAGGAGACGCAACAGAGGAUUGAGCAUCA: 2.03 ratio
GGGAGUUCUACAGUCCGACGAUCCGUCUUCUGUCUGCCUUCCCUGUCUCCCUAACUCCCCCUUCCUUCCCAUUGUCUUUUUGGCCGGUUGGAUUCUGGGGACUAAACUGCAGUUCCUCAUAAAAAUCCCCAUUCCUACCCUUUCAACAGAGGAUUGAGCAUCA: 0.322 ratio
GGGAGUUCUACAGUCCGACGAUCGGCUGGCCCCAGUCCCAAGGAACAAGAGAUGGUCAAGUCGCUAGAGACAUAUCAGGGGACAUCCGGAUUGGGGAAGACACUUGACUGCUAGAAUCAGAGGUUGGACACUAUACAUAAGGACAACAGAGGAUUGAGCAUCA: 0.223 ratio

Mixed results
PhoQ, residues 284 288 289 292 302 303 TNSAEL  fold induction (PhoP, residues 12 14 15 18 19 GQAIL (Escherichia coli, UniProt P23836); Sort-seq, refers to: YFP reporter; E. coli; PhoQ-PhoP variant library, with: 10 µM Mg2+; reference: high Mg2+ state, higher = stronger signaling): 9.01
